Experimental data from different studies.
Compare with care: the assays were run in different laboratories.
Method: steady-state kinetics
B1: sacB (Priestia megaterium, UniProt D5DC07); chain KGNDSKDFNNSYGISHITRDNMVKIPQQQNSDQFKVPAFDESTIKNIASAKGKNASGNTIDLDVWDSWPLQNADGTVATYHGYQIVFALAGDPKDSNDTSVYLFYKKAGDKSIDSWKNAGRVFKDSDKFVPNDPHLKNQTQEWSGSGTLTKDGKVRLFYTDYSGKQYGKQTLTTAQVNMSQPNDNTLKVDGVEDYKSIFDGDGKIYQTVQQFIDEGGYDTGDNHTLRDPHYIEDNGHKYLVFEANTGTEDGYQGEDSLYNRAYYGGNNPFFQSEKKKLLEGSNKEKASLANGALGIIELNDDYTLKKVMKPLITSNTVTDEIERANIFKKDGKWYLFTDSRGSKMTIDGIGQDDVYMLGYVSNTLTGKYKPLNDTGLVLHMDLDPNDKTFTYSHFAVPQTKGDNVVITSYMTNRGFYEDNHSTFAPSFLVNIDGSKTSVVKDRVLEQGQLTVDED
B2: speck S221A (Drosophila melanogaster, UniProt Q94521); chain MEDALTVSGKPAACPVDQDCPYTIELIQPEDGEAVIAMLKTFFFKDEPLNTFLDLGECKELEKYSLKPLPDNCSYKAVNKKGEIIGVFLNGLMRRPSPDDVPEKAADSCEHPKFKKILSLMDHVEEQFNIFDVYPDEELILDGKILSVDTNYRGLGIAGRLTERAYEYMRENGINVYHVLCSSHYAARVMEKLGFHEVFRMQFADYKPQGEVVFKPAAPHVGIQVMAKEVGPAKAAQTKL
B3: ST3GAL6 (Homo sapiens, UniProt Q9Y274); chain TNVYWVAPVEMKRRNKIQPCLSKPAFASLLRFHQFHPFLCAADFRKIASLYGSDKFDLPYGMRTSAEYFRLALSKLQSCDLFDEFDNIPCKKCVVVGNGGVLKNKTLGEKIDSYDVIIRMNNGPVLGHEEEVGRRTTFRLFYPESVFSDPIHNDPNTTVILTAFKPHDLRWLLELLMGDKINTNGFWKKPALNLIYKPYQIRILDPFIIRTAAYELLHFPKVFPKNQKPKHPTTGIIAITLAFYICHEVHLAGFKYNFSDLKSPLHYYGNATMSLMNKNAYHNVTAEQLFLKDIIEKNLVINLTQD
B4: protein (UniProt A0A4Y6I1F8); chain MGSEVVSKKHEFGALEVEGIDFRASVAALGSTKKLVLGGAGFRGLEINGNLVKFTAIGIYVEEAIIPHLSPKLGGKTVEELCANELLFEEVLSAPFDKLIRVVFLLPLTGPQYSEKVVERIGLLPNPGLKEESIKQFLEIFKAENFPPRTSLVCSFTEDGLKIAFMKGPDFPEESDAVIEDKYFARAFLATIIAKDGVSPMAKLSFAERVSKYL
B5: oxdC (Bacillus subtilis, UniProt O34714); chain MKKQNDIPQPIRGDKGATVKIPRNIERDRQNPDMLVPPETDHGTVSNMKFSFSDTHNRLEKGGYAREVTVRELPISENLASVNMRLKPGAIRELHWHKEAEWAYMIYGSARVTIVDEKGRSFIDDVGEGDLWYFPSGLPHSIQALEEGAEFLLVFDDGSFSENSTFQLTDWLAHTPKEVIAANFGVTKEEISNLPGKEKYIFENQLPGSLKDDIVEGPNGEVPYPFTYRLLEQEPIESEGGKVYIADSTNFKVSKTIASALVTVEPGAMRELHWHPNTHEWQYYISGKARMTVFASDGHARTFNYQAGDVGYVPFAMGHYVENIGDEPLVFLEIFKDDHYADVSLNQWLAMLPETFVQAHLDLGKDFTDVLSKEKHPVVKKKCSK
B6: CoA persulfide reductase CDR-RHD (Enterococcus faecalis, UniProt A0ACD6TF65); chain MKIVIIGGVAGGMSAATRLRRLMEDAEIVVMEKGPFVSFANCGLPYYVSGEIAEREQLLVQTPEALKARFNLDVRPHHEVVAIDPIEKVITVKHETEILTEHYDKLILSPGAKPFVPPITGLAEAKNVFSLRNVPDLDQIMTALTPETKRAVVIGAGFIGLEMAENLQKRGLEVTLVEKAPHVLPPLDEEMAAFVKAELSKNNVQVITGQSAVAFEEEGQVIRLEDGQTLASDLTILSVGVQPENTLAVEAGVATGLRGGIVVDEHYQTNQPDIYAVGDAIVVKQQITQEDALISLASPANRQGRQVADVIAGLERKNQGSIGTAIVRVFDLTAASTGLSERAAKAAGLTTAVVHISGKDHAGYYPGATDLQLKLVFHPTTGEIYGAQGIGAKGVDKRIDILATAIKGQLTIFDLPELEFTYAPPFGSAKDPVNMLGYAAMNLVEGLSENVQWYELSNELAKGAVLLDVRNPAERANGQFKNAVSIPLNELRERLEELDKSTEYIVSCHSGLRSYIAERMLKQAGISAKNLDGAFALYRMVKPEELENV
B7: UGT1A9 (Homo sapiens, UniProt O60656); chain GKLLVVPMDGSHWFTMRSVVEKLILRGHEVVVVMPEVSWQLGRSLNCTVKTYSTSYTLEDLDREFKAFAHAQWKAQVRSIYSLLMGSYNDIFDLFFSNCRSLFKDKKLVEYLKESSFDAVFLDPFDNCGLIVAKYFSLPSVVFARGILCHYLEEGAQCPAPLSYVPRILLGFSDAMTFKERVRNHIMHLEEHLLCHRFFKNALEIASEILQTPVTEYDLYSHTSIWLLRTDFVLDYPKPVMPNMIFIGGINCHQGKPLPMEFEAYINASGEHGIVVFSLGSMVSEIPEKKAMAIADALGKIPQTVLWRYTGTRPSNLANNTILVKWLPQNDLLGHPMTRAFITHAGSHGVYESICNGVPMVMMPLFGDQMDNAKRMETKGAGVTLNVLEMTSEDLENALKAVINDKSYKENIMRLSSLHKDRPVEPLDLAVFWVEFVMRHKGAPHLRPAAHDLTWYQYHSLDVIGFLLAVVLTVAFITFKCCAYGYRKCLGKKGRVKKAHKSKTH
B8: enzyme (Neurospora crassa, UniProt Q7SCU7); chain ATSSVSKIVSQPRSLAEVCAALRAKLLAFLALHSNDETVQGTQRRARDAMEVIEEALRRYRPEELSLSYNGGKDCLVLLILILACWPASVQPPSSSSSSSSSSISNSSKQTLPRLQCIYIAPPDPFQEVEDFVATTTEEYHLDLARYALPMRQALDSYLDEKPHVKAVFMGTRRTDPHSEFLNNFTPTDKGWPQFMRINPVLDWHYVEIWTFIRQLDIPFCSLYSQGFSSLGGTKDTRPNPALALNAEGNKFRPAYELTRDDEERLGRDR
B9: protein G96D/P94L (Streptomyces coelicolor, UniProt P16544); chain MATQDSEVALVTGATSGIGLEIARRLGKEGLRVFVCARGEEGLRTTLKELREAGVEADGRTCDVRSVPEIEALVAAVVERYGPVDVLVNNAGRLGDGATAELADELWLDVVETNLTGVFRVTKQVLKAGGMLERGTGRIVNIASTGGKQGVVHAAPYSASKHGVVGFTKALGLELARTGITVNAVCPGFVETPMAASVREHYSDIWEVSTEEAFDRITARVPIGRYVQPSEVAEMVAYLIGPGAAAVTAQALNVCGGLGNY
B10: adh (Lentilactobacillus kefiri, UniProt Q6WVP7); chain TDRLKGKVAIVTGGTLGIGLAIADKFVEEGAKVVITGRHADVGEKAAKSIGGTDVIRFVQHDASDEAGWTKLFDTTEEAFGPVTTVVNNAGIAVSKSVEDTTTEEWRKLLSVNLDGVFFGTRLGIQRMKNKGLGASIINMSSIEGFVGDPTLGAYNASKGAVRIMSKSAALDCALKDYDVRVNTVHPGYIKTPLVDDLEGAEEMMSQRTKTPMGHIGEPNDIAWICVYLASDESKFATGAEFVVDGGYTAQ
B11: enzyme (Thermobifida fusca, UniProt Q47RK4); chain MTDVYILDAVRTPFGRYGGALSGIRPDDLAAHVLRALAERSPGLDPAAVDDVFFGDANGAGEDNRNVARMAALLAGWPTSVPGVTLNRLCGSGMESVIAANRAIAVGDASLAVAGGVESMSRAPWVLPKPAQGFPTGHETLYSTTLGWRMVNPAMPEQWTVSLGESTEQVAATYGISRAEQDAFALRSHERAARAWAEGVFDAEITQIPGAELERDESIRETSAEKLAALKPAFRPDGTITAGNASPLNDGAAALLIGDAAAAERVGREPLARIVSRGVAAVDPDVFGIGPVQAAEIALRRAGIGWDDLSVVELNEAFAAQSLACLKLWPDLDPEIVNPNGGAIAIGHPLGASGARIVGTLAHELHRRGGGWGLAAICIGVGQGLAVVLHR
B12: TenA_E (Arabidopsis thaliana, UniProt Q9ASY9); chain MEKRGVIDTWIDKHRSIYTAATRHAFVVSIRDGSVDLSSFRTWLGQDYLFVRRFVPFVASVLIRACKDSGESSDMEVVLGGIASLNDEIEWFKREGSKWDVDFSTVVPQRANQEYGRFLEDLMSSEVKYPVIMTAFWAIEAVYQESFAHCLEDGNKTPVELTGACHRWGNDGFKQYCSSVKNIAERCLENASGEVLGEAEDVLVRVLELEVAFWEMSRGGQ
B13: hdhb (Clostridium sardiniense, UniProt G9FRD6); chain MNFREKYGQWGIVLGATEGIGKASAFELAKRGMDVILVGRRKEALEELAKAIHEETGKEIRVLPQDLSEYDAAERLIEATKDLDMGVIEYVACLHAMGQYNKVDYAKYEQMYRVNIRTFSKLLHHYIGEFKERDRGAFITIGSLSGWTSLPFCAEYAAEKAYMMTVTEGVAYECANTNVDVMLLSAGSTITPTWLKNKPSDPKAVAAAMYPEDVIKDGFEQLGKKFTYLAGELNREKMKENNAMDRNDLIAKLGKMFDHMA
Chain of UniProt P27306 (whole entry, looked up): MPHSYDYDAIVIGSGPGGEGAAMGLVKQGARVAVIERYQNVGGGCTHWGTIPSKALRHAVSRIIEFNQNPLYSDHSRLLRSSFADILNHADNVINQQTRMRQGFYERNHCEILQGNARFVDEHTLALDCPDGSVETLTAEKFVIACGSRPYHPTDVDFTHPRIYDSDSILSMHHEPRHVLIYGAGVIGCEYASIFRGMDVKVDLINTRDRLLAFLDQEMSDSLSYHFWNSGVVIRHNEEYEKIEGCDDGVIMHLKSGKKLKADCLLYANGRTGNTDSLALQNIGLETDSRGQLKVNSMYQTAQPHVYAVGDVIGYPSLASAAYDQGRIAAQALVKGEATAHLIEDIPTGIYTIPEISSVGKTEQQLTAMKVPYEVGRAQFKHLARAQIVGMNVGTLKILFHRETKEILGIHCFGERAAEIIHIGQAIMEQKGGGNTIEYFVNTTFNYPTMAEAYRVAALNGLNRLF
Chain of UniProt P69848 (whole entry, looked up): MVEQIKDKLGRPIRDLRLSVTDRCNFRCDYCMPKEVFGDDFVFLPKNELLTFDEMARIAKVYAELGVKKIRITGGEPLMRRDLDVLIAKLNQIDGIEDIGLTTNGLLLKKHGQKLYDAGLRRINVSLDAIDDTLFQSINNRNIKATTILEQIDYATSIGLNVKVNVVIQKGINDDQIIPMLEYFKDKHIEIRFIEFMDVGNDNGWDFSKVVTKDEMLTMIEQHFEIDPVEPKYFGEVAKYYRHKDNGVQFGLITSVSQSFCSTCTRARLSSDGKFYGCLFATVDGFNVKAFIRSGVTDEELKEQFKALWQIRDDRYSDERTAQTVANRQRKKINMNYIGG
Chain of UniProt Q15JG1 (whole entry, looked up): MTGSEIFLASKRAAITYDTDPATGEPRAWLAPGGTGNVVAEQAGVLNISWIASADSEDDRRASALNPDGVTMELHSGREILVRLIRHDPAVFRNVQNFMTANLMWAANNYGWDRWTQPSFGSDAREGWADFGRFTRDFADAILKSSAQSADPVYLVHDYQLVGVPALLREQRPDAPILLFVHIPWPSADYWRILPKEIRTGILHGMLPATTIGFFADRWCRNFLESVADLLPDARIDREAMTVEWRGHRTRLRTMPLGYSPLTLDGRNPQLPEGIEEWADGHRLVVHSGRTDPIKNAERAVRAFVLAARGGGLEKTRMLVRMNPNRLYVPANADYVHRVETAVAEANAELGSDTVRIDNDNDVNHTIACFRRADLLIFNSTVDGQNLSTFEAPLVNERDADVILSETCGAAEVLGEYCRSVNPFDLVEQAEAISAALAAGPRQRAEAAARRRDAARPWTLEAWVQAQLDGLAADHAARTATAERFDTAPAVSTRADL

| Substance | substrate | setting | Km [µM] |
| --- | --- | --- | --- |
| B1 (sacB) | OC[C@H]1O[C@@](CO)(O[C@H]2O[C@H](CO)[C@@H](O)[C@H](O)[C@H]2O)[C@@H](O)[C@@H]1O | pH 6.9 | 21200 |
| B2 (speck S221A) | CC(=O)SCCNC(=O)CCNC(=O)[C@H](O)C(C)(C)COP(=O)(O)OP(=O)(O)OC[C@H]1O[C@@H](n2cnc3c(N)ncnc32)[C@H](O)[C@@H]1OP(=O)(O)O | pH 7.2, 30 °C | 390 |
| B3 (ST3GAL6) | CC(=O)N[C@H]1[C@H](O[C@H]2[C@@H](O)[C@@H](CO)O[C@@H](O[C@H]3[C@H](O)[C@@H](O)[C@H](Oc4ccc([N+](=O)[O-])cc4)O[C@@H]3CO)[C@@H]2O)O[C@H](CO)[C@@H](O)[C@@H]1O[C@@H]1O[C@H](CO)[C@H](O)[C@H](O)[C@H]1O | pH 6, together with: CMP-Neu5Ac | 360 |
| B4 (protein) | O=C(/C=C/c1ccc(O)cc1)c1c(O)cc(O)cc1O | – | 99.6 |
| sthA (Escherichia coli, UniProt P27306) | NC(=O)C1=CN([C@@H]2O[C@H](COP(=O)(O)OP(=O)(O)OC[C@H]3O[C@@H](n4cnc5c(N)ncnc54)[C@H](OP(=O)(O)O)[C@@H]3O)[C@@H](O)[C@H]2O)C=CC1 | pH 7.5, 37 °C, NaCl 150 mM, together with: thio-NAD+ 200 µM | 32 |
| B5 (oxdC) | O=C(O)C(=O)O | pH 4.2, together with: Mn 1.87 per monomer, Triton X-100.2% | 8400 |
| B6 | N[C@@H](CSS)C(=O)O | pH 8, 25 °C, Km not accurate, together with: FAD 100 nM, NADH 100 µM | 270 |
| B7 (UGT1A9) | COc1ccc(/C=C\c2cc(OC)c(OC)c(OC)c2)cc1O | pH 7.4, 37 °C | 4.18 |
| B8 (enzyme) | Nc1ncnc2c1ncn2[C@@H]1O[C@H](COP(=O)(O)OP(=O)(O)OP(=O)(O)O)[C@@H](O)[C@H]1O | pH 7.5, 37 °C | 84.8 |
| vldE (Streptomyces hygroscopicus, UniProt Q15JG1) | Nc1nc2c(ncn2[C@@H]2O[C@H](COP(=O)(O)OP(=O)(O)O[C@H]3C=C(CO)[C@@H](O)[C@H](O)[C@H]3O)[C@@H](O)[C@H]2O)c(=O)[nH]1 | pH 7.5, apparent, donor made in situ, together with: validamine 7-phosphate 1 mM | 59.7 |
| B9 (protein G96D/P94L) | O[C@H]1CCCc2ccccc21 | pH 7.4, phosphate 400 mM, NADPH 250 µM printed, together with: NADP+, reverse reaction | 10900 |
| B10 (adh) | NC(=O)c1ccc[n+]([C@@H]2O[C@H](COP(=O)(O)OP(=O)(O)OC[C@H]3O[C@@H](n4cnc5c(N)ncnc54)[C@H](OP(=O)(O)O)[C@@H]3O)[C@@H](O)[C@H]2O)c1 | pH 9, 30 °C, not purified, cofactor varied | 217 |
| B11 (enzyme) | CC(C)(COP(=O)(O)OP(=O)(O)OC[C@H]1O[C@@H](n2cnc3c(N)ncnc32)[C@H](O)[C@@H]1OP(=O)(O)O)[C@@H](O)C(=O)NCCC(=O)NCCSC(=O)CCC(=O)O | pH 7.4, 37 °C | 2100 |
| PGDH1 (Amborella trichopoda, UniProt U5D351) | O=C(O)[C@H](O)COP(=O)(O)O | pH 9, 25 °C, NaCl 0.1 M, apparent, together with: NAD+ | 815 |
| B12 (TenA_E) | Cc1ncc(CN)c(N)n1 | pH 7.5, 30 °C, amino-HMP aminohydrolase activity, together with: 450 mM glycine betaine | 1820 |
| B13 (hdhb) | NC(=O)c1ccc[n+]([C@@H]2O[C@H](COP(=O)(O)OP(=O)(O)OC[C@H]3O[C@@H](n4cnc5c(N)ncnc54)[C@H](OP(=O)(O)O)[C@@H]3O)[C@@H](O)[C@H]2O)c1 | pH 8, 25 °C, cofactor varied | 33 |
| enzyme (Staphylococcus aureus, UniProt P69848) | Nc1nc2c(ncn2[C@@H]2O[C@H](COP(=O)(O)OP(=O)(O)OP(=O)(O)O)[C@@H](O)[C@H]2O)c(=O)[nH]1 | pH 7.6, 25 °C | 3.1 |

For quick reference, copied from above:
| Substance | substrate | setting | Km [µM] |
| --- | --- | --- | --- |
| B2 (speck S221A) | CC(=O)SCCNC(=O)CCNC(=O)[C@H](O)C(C)(C)COP(=O)(O)OP(=O)(O)OC[C@H]1O[C@@H](n2cnc3c(N)ncnc32)[C@H](O)[C@@H]1OP(=O)(O)O | pH 7.2, 30 °C | 390 |
